Results gathered from unrelated publications.
Compare with care: the assays were run in different laboratories. “And” joins repeats or separate records; there may be more than shown. ± marks the error that the study gave. Values after ≈ are worked out from the molar mass of the structure shown.
Chain of UniProt Q96SB4 (whole entry, looked up): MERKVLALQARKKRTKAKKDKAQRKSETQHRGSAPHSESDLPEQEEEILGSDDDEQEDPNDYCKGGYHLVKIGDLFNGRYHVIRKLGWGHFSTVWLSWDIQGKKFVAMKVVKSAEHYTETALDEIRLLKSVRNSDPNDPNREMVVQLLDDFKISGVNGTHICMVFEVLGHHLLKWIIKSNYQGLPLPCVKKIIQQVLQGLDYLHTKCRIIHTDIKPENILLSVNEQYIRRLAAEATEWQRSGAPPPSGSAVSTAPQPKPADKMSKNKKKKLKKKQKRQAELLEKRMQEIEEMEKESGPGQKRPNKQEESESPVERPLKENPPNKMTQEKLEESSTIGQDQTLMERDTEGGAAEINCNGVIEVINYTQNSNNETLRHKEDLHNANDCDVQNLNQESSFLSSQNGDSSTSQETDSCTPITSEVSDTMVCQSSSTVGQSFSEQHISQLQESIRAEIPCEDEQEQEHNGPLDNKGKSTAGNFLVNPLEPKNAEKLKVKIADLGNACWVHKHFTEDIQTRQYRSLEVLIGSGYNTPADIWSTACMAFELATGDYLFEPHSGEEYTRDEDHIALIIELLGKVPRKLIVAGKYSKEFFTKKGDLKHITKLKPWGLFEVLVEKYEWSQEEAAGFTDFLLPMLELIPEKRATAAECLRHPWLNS

C=CC(=O)Nc1cccc(Cn2ncc3cnc(Nc4cnn(CCOC)c4)nc32)c1 has an MCHC of 374 ± 16.4 g/L (Sprague-Dawley rat male, blood; oral, 180 mg/kg, day 28, 28-day subacute toxicity).
With CSCC[C@H](NC(=O)CNC(=O)[C@H](CCCCN)NC(=O)[C@H](CC(C)C)NC(=O)[C@@H]1CCCN1C(=O)[C@H](CO)NC(=O)[C@H](Cc1c[nH]cn1)NC(=O)[C@H](Cc1c[nH]c2ccccc12)NC(=O)[C@H](CCCNC(=N)N)NC(=O)[C@H](CC(C)C)NC(=O)[C@H](CCCNC(=N)N)NC(=O)[C@H](Cc1c[nH]c2ccccc12)NC(=O)[C@H](CS)NC(=O)CCCCCNC(=O)CN1CCN(CC(=O)O)CCN(CC(=O)O)CCN(CC(=O)O)CC1)C(=O)O [copper-64 labelled] the tissue uptake was 0.78 %ID/g (ex vivo biodistribution; male C57BL/6J mice, muscle; intravenous, 1.85 MBq, 0.5 h, B16-F10 tumour-bearing).
N=C(N)NCCC[C@H](NC(=O)[C@H](CCCNC(=N)N)NC(=O)[C@H](CCCNC(=N)N)NC(=O)[C@H](CCC(N)=O)NC(=O)[C@H](CCCNC(=N)N)NC(=O)[C@H](CCCNC(=N)N)NC(=O)[C@H](CCCCN)NC(=O)[C@H](CCCCN)NC(=O)[C@H](CCCNC(=N)N)NC(=O)CNC(=O)[C@H](Cc1ccc(O)cc1)NC(=O)[C@H](Cc1ccccc1)NC(=O)[C@H](Cc1ccccc1)NC(=O)[C@H](Cc1ccccc1)NC(=O)OCC1c2ccccc2-c2ccccc21)C(=O)O gave a health score of 5 (C57BL/6 mice; intraperitoneal, 20 mg/kg, 12 h; direction not given).
The Tmax of CC1(C)C(=O)N(c2ccc(C#N)c(C(F)(F)F)c2)C(=S)N1c1ccc(C(N)=O)c(F)c1 is reported as 168 h (male human, plasma; oral, 80 mg, single dose, fasted).
For CC[C@H](C)[C@H](NC(=O)[C@H](CCCCN)NC(=O)CNC(=O)[C@H](CC(C)C)NC(=O)[C@H](Cc1ccccc1)NC(=O)[C@H](CCCCN)NC(=O)[C@H](CO)NC(=O)[C@H](Cc1ccccc1)NC(=O)[C@H](Cc1c[nH]c2ccccc12)NC(=O)[C@H](CCC(N)=O)NC(=O)[C@@H](NC(=O)[C@H](Cc1ccccc1)NC(=O)CCCCCNC(=O)CN1CCN(CC(=O)O)CCN(CC(=O)O)CCN(CC(=O)O)CC1)C(C)C)C(=O)N[C@@H](CCC(=O)O)C(=O)N1CCC[C@H]1C(=O)N[C@@H](CC(=O)O)C(=O)N[C@H](C(=O)N[C@@H](CO)C(=O)N[C@@H](CCC(N)=O)C(=O)N[C@H](C(=O)N[C@@H](CCC(N)=O)C(=O)N[C@@H](CC(=O)O)C(=O)N1CCC[C@H]1C(=O)N[C@@H](CC(N)=O)C(=O)N[C@@H](CC(=O)O)C(=O)N[C@@H](CCC(N)=O)C(=O)N[C@@H](Cc1ccc(O)cc1)C(=O)N[C@@H](CCC(=O)O)C(=O)N1CCC[C@H]1C(=O)N[C@@H](Cc1ccccc1)C(=O)O)C(C)C)C(C)C [copper-64 labelled], the tissue uptake was 0.31 ± 0.02 %ID/g (C57BL/6 male mouse, tumour-naive, brain; 1 h).
CC(=O)NCCCC[C@@H]1NC(=O)[C@H](Cc2c[nH]c3c(C)cccc23)NC(=O)[C@H]([C@@H](C)O)NC(=O)[C@H](CC(N)=O)NC(=O)[C@@H](NC(C)=O)C(C)(C)SSC(C)(C)[C@@H](C(=O)N[C@@H](Cc2ccc(OCCN)cc2)C(=O)N[C@@H](Cc2ccc3ccccc3c2)C(=O)NC2(C(=O)N[C@@H](CCC(=O)O)C(=O)N[C@@H](CC(N)=O)C(=O)N[C@@H](Cc3cccnc3)C(=O)N(C)CC(N)=O)CCOCC2)NC1=O: “plasma protein binding” 56 ± 2.5% (equilibrium dialysis; mouse, plasma; 0.01 µM).
CCCC[C@H]1C(=O)N(C)[C@@H](CCCC)C(=O)N[C@@H](CCCNC(=O)CN2CCN(CC(=O)O)CCN(CC(=O)O)CCN(CC(=O)O)CC2)C(=O)N[C@H](C(=O)NCC(N)=O)CSCC(=O)N[C@@H](Cc2ccc(O)cc2)C(=O)N(C)[C@@H](C)C(=O)N[C@@H](CC(N)=O)C(=O)N2CCC[C@H]2C(=O)N[C@@H](Cc2c[nH]cn2)C(=O)N[C@@H](CC(C)C)C(=O)N(C)CC(=O)N[C@@H](Cc2c[nH]c3ccccc23)C(=O)N[C@@H](CO)C(=O)N[C@@H](Cc2c[nH]c3ccccc23)C(=O)N1C [gallium-68 labelled] gave a radiochemical purity of 94.9% (radio-HPLC; fetal bovine serum; 120 min, 37 °C).
COc1ccc([C@@H]2CC(=O)c3c(O)cc(O[C@@H]4O[C@H](CO)[C@@H](O)[C@H](O)[C@H]4O[C@@H]4O[C@@H](C)[C@H](O)[C@@H](O)[C@H]4O)cc3O2)cc1O has a faecal excretion of 14.5 ± 12.2 ng (male Sprague-Dawley rats, lean, faeces; oral, 100 mg/kg, 48 to 36 h).
CC(C)(C)C(=O)OCOP(=O)(OCOC(=O)C(C)(C)C)C1CCCN(O)C1=O (stereo not drawn) gave a log TGI of -4.9 log M (EKVX).
With CCc1nn(C)c2nc(-c3ccc(C(=O)O)cc3)nc(NCc3ccccc3)c12 the body weight was 23 g and 22 g and 24.2 g and 23.5 g (NSG mice; dose not given, day 7 of treatment).
With CN[C@H](CC(C)C)C(=O)N[C@H]1C(=O)N[C@@H](CC(N)=O)C(=O)N[C@H]2C(=N)N[C@H]3C(=O)N[C@H](C(=O)N[C@H](C(=O)NCCCNC(=N)N)c4cc(O)cc(O)c4-c4cc3ccc4O)[C@H](O)c3ccc(c(Cl)c3)Oc3cc2cc(c3O[C@@H]2O[C@H](CO)[C@@H](O)[C@H](O)[C@H]2O[C@H]2C[C@](C)(NCc3ccc(-c4ccc(Cl)cc4)cc3)[C@H](O)[C@H](C)O2)Oc2ccc(cc2Cl)[C@H]1O the clearance was 0.69 mL/min/kg (mouse; intravenous, 10 mg/kg).
N=C(N)NCCC[C@@H](NC(=O)[C@H](N)Cc1c[nH]c2ccccc12)C(=O)N[C@H](CCCCN)C(=O)N[C@H](Cc1c[nH]c2ccccc12)C(=O)N[C@H](CCCNC(=N)N)C(=O)N[C@H](CCCCN)C(=O)N[C@H](Cc1c[nH]c2ccccc12)C(=O)N[C@H](CCCNC(=N)N)C(=O)N[C@H](CCCCN)C(=O)N[C@H](Cc1c[nH]c2ccccc12)C(=O)N[C@H](CCCNC(=N)N)C(=O)N[C@H](CCCCN)C(N)=O has an organ index of 0.534 (mouse, spleen; intravenous, 20 mg/kg single dose, 7 days).
C=Cc1c(C)c2cc3nc(c(CC(=O)O)c4[nH]c(cc5nc(cc1[nH]2)C(C)=C5CC)c(C)c4C(=O)O)[C@@H](CCC(=O)NCCCC[C@H](NC(C)=O)C(=O)N[C@@H](Cc1ccccc1)C(=O)N[C@@H](Cc1ccccc1)C(=O)N[C@H](C(=O)N[C@@H](CC(C)C)C(=O)N[C@@H](CCCCN)C(=O)N[C@@H](CO)C(=O)NCC(=O)N[C@@H](CCC(N)=O)C(=O)N[C@@H](Cc1ccc(O)cc1)C(=O)N[C@@H](C)C(=O)N[C@@H](CO)C(=O)N[C@@H](Cc1ccc(O)cc1)C(=O)N[C@@H](Cc1c[nH]cn1)C(=O)N[C@@H](CS)C(=O)N[C@@H](Cc1c[nH]c2ccccc12)C(=O)N[C@@H](CS)C(=O)N[C@@H](Cc1c[nH]c2ccccc12)C(=O)N[C@@H](CCCNC(=N)N)C(=O)N[C@@H](CC(=O)O)C(=O)N1CCC[C@H]1C(=O)NCC(=O)N[C@@H](CCCNC(=N)N)C(=O)N[C@@H](CO)C(=O)NCC(=O)NCC(=O)N[C@@H](CO)C(=O)N[C@@H](CCCCN)C(N)=O)C(C)C)[C@@H]3C has a blood concentration of 55.6 µg/mL and 67.4 µg/mL (mouse, blood; 12 h).
For CCCCCCCCCCCCCCCC(=O)N[C@@H](CCC(=O)NCCOCCOCCC(=O)NCCOCCOCCC(=O)NCCCC[C@H](NC(=O)[C@H](CC(=O)O)NC(=O)[C@H](CC(C)C)NC(=O)[C@H](Cc1ccc(O)cc1)NC(=O)[C@H](CCCCN)NC(=O)[C@H](CO)NC(=O)[C@H](Cc1ccc(O)cc1)NC(=O)[C@H](CC(=O)O)NC(=O)[C@H](CO)NC(=O)[C@@H](NC(=O)[C@H](Cc1ccccc1)NC(=O)[C@@H](NC(=O)CNC(=O)[C@H](CCC(N)=O)NC(=O)[C@@H](CO)NC(=O)[C@@H](N)Cc1c[nH]cn1)[C@@H](C)O)[C@@H](C)O)C(=O)N[C@@H](CCCNC(=N)N)C(=O)N[C@@H](CCCNC(=N)N)C(=O)N[C@@H](C)C(=O)N[C@@H](CCC(N)=O)C(=O)N[C@@H](CC(=O)O)C(=O)N[C@@H](Cc1ccccc1)C(=O)N[C@H](C(=O)N[C@@H](CCC(N)=O)C(=O)N[C@@H](Cc1c[nH]c2ccccc12)C(=O)N[C@@H](CC(C)C)C(=O)N[C@@H](CC(C)C)C(=O)N[C@@H](CC(N)=O)C(=O)N[C@H](C(=O)NCC(=O)NCC(=O)N1CCC[C@H]1C(=O)N[C@@H](CO)C(=O)N[C@@H](CO)C(=O)NCC(=O)N[C@@H](C)C(=O)N1CCC[C@H]1C(=O)N1CCC[C@H]1C(=O)N1CCC[C@H]1C(=O)N[C@@H](CO)C(N)=O)[C@@H](C)O)C(C)C)C(=O)O, the creatinine was 28.2 ± 3.6 µmol/L (Sprague-Dawley rat, female; subcutaneous, 500 µg/kg once daily, 14 days).
CN1C(=O)[C@@H]2NC(=O)[C@@H]3NC(=O)[C@@H](c4ccc(O)cc4)NC(=O)[C@H](NC(=O)C(N)c4ccc(O)cc4)Cc4c[nH]c5cc(ccc45)-c4cc3cc(c4O)Oc3ccc(cc3)C[C@H]1C(=O)N[C@@H](C(=O)NCCCN)c1ccc(O)c(c1)Oc1ccc2cc1 (stereo partly drawn) gave a thermodynamic solubility of 28.4 µg/mL (≈ 24.1 µM) (saline; 24 h, 25 °C).
For C=Cc1c(C)c2cc3nc(c(CC(=O)[O-])c4[n-]c(cc5nc(cc1[n-]2)C(C)=C5CC)c(C)c4C(=O)[O-])C(CCC(=O)[O-])C3C.[Cu+2].[Na+].[Na+].[Na+] (stereo not drawn), the serum albumin was 1.02 ± 0.1 g/dL (Wistar rat, male; oral, 250 mg/kg daily, 28 days).
With O=C1NC2(CC2)COc2ncc(F)cc2[C@H]2COCCN2c2ccn3ncc1c3n2 the lymphocyte percentage was 59 ± 17.5% (Sprague-Dawley rat, female, blood; oral, 5 mg/kg/day, 4 weeks, end of treatment, subacute toxicity).
CN1Cc2cc(Cl)ccc2-n2c(nnc2C2CCN(c3cccc([18F])n3)CC2)C1 gave a tissue uptake of 11 ± 3.02 %ID/g (C57BL/6 mouse male, kidney; intravenous, 3.7 MBq, 1 min).
For COc1ccccc1-c1n[nH]c2nc(NC3CCN(C(=O)Cc4ccc(F)cc4F)CC3)ncc12, the relative abundance was 1.04 (bead binding, competition bead pull-down, refers to: LINJ.36.6960; Leishmania donovani extract; 10 µM; reference: vehicle).
CN(C)[C@H]1C[C@@]23CC[C@@]4(O2)C(=CC[C@]2(C)[C@@H](c5ccc6ccncc6c5)CC[C@H]24)C=C3[C@@H](O)[C@@H]1O has an inhibition of 1% (SRPK1 (Homo sapiens, UniProt Q96SB4); ATP probe labelling, inhibitor, KiNativ profiling; 1 µM).
The serum ALT of CCCCCCCCCCCCCCCC(=O)OCC(CSC[C@H](N)C(=O)N[C@@H](CO)C(=O)N[C@@H](CCCCN)C(=O)N[C@@H](CCCCN)C(=O)N[C@@H](CCCCN)C(=O)N[C@@H](CCCCN)C(=O)NCCCCCC(=O)N[C@@H](CCCCN)C(=O)N[C@@H](CC(C)C)C(=O)N[C@H](C(=O)N[C@@H](Cc1ccccc1)C(=O)N[C@@H](Cc1ccccc1)C(=O)N[C@@H](Cc1ccc2ccccc2c1)C(=O)O)C(C)C)OC(=O)CCCCCCCCCCCCCCC (stereo partly drawn) is reported as 21.3 U/L and 11.9 U/L and 12.3 U/L and 12.5 U/L and 21.6 U/L (C57BL/6J mouse, serum; intraperitoneal, dose not given).

Excerpt of the above:
The Tmax of CC1(C)C(=O)N(c2ccc(C#N)c(C(F)(F)F)c2)C(=S)N1c1ccc(C(N)=O)c(F)c1 is reported as 168 h (male human, plasma; oral, 80 mg, single dose, fasted).
For CC[C@H](C)[C@H](NC(=O)[C@H](CCCCN)NC(=O)CNC(=O)[C@H](CC(C)C)NC(=O)[C@H](Cc1ccccc1)NC(=O)[C@H](CCCCN)NC(=O)[C@H](CO)NC(=O)[C@H](Cc1ccccc1)NC(=O)[C@H](Cc1c[nH]c2ccccc12)NC(=O)[C@H](CCC(N)=O)NC(=O)[C@@H](NC(=O)[C@H](Cc1ccccc1)NC(=O)CCCCCNC(=O)CN1CCN(CC(=O)O)CCN(CC(=O)O)CCN(CC(=O)O)CC1)C(C)C)C(=O)N[C@@H](CCC(=O)O)C(=O)N1CCC[C@H]1C(=O)N[C@@H](CC(=O)O)C(=O)N[C@H](C(=O)N[C@@H](CO)C(=O)N[C@@H](CCC(N)=O)C(=O)N[C@H](C(=O)N[C@@H](CCC(N)=O)C(=O)N[C@@H](CC(=O)O)C(=O)N1CCC[C@H]1C(=O)N[C@@H](CC(N)=O)C(=O)N[C@@H](CC(=O)O)C(=O)N[C@@H](CCC(N)=O)C(=O)N[C@@H](Cc1ccc(O)cc1)C(=O)N[C@@H](CCC(=O)O)C(=O)N1CCC[C@H]1C(=O)N[C@@H](Cc1ccccc1)C(=O)O)C(C)C)C(C)C [copper-64 labelled], the tissue uptake was 0.31 ± 0.02 %ID/g (C57BL/6 male mouse, tumour-naive, brain; 1 h).
CC(=O)NCCCC[C@@H]1NC(=O)[C@H](Cc2c[nH]c3c(C)cccc23)NC(=O)[C@H]([C@@H](C)O)NC(=O)[C@H](CC(N)=O)NC(=O)[C@@H](NC(C)=O)C(C)(C)SSC(C)(C)[C@@H](C(=O)N[C@@H](Cc2ccc(OCCN)cc2)C(=O)N[C@@H](Cc2ccc3ccccc3c2)C(=O)NC2(C(=O)N[C@@H](CCC(=O)O)C(=O)N[C@@H](CC(N)=O)C(=O)N[C@@H](Cc3cccnc3)C(=O)N(C)CC(N)=O)CCOCC2)NC1=O: “plasma protein binding” 56 ± 2.5% (equilibrium dialysis; mouse, plasma; 0.01 µM).
